Measurements collected from several papers.
A part holds a random share of what one study measured. “And” joins repeats or separate records; there may be more than shown.
Sequence of UniProt P23975 (whole entry, looked up): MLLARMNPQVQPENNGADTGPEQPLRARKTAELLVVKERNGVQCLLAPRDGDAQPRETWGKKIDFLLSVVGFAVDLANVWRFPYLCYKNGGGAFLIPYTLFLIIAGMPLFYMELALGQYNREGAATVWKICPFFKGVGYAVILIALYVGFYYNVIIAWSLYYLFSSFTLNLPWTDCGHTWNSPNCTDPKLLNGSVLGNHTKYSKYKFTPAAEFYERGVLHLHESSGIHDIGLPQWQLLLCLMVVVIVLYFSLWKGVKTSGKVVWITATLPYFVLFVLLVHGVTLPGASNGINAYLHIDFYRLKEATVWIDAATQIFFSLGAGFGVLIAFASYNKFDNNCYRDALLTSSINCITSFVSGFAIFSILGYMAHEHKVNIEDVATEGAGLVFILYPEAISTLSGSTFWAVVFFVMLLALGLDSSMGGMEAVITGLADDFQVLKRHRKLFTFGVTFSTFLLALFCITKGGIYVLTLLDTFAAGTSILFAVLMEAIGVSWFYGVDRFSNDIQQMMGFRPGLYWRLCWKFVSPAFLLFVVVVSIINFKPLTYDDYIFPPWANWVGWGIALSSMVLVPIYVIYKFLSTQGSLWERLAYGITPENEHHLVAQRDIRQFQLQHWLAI
Sequence of UniProt P41145 (whole entry, looked up): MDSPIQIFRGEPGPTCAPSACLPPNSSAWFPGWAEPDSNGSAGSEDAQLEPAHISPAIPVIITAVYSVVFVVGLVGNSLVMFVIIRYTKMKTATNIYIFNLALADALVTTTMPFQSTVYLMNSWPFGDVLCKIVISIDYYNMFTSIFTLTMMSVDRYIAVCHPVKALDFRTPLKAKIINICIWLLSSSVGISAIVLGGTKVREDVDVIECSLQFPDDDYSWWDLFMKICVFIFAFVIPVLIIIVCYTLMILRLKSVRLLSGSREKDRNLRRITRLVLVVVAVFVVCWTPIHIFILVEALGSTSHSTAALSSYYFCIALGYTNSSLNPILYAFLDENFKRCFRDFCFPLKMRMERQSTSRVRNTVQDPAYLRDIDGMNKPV
Sequence of UniProt P35372 (whole entry, looked up): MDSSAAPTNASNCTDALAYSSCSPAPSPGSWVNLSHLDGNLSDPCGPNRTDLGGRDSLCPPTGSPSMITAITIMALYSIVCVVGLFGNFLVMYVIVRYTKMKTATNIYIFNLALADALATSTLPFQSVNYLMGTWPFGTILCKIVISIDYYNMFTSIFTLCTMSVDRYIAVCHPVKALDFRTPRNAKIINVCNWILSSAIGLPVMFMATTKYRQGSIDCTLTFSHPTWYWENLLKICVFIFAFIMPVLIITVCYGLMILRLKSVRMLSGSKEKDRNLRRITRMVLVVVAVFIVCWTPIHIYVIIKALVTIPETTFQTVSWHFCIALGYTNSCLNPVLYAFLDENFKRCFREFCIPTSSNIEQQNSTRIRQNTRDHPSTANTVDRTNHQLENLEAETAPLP
Sequence of UniProt P31645 (whole entry, looked up): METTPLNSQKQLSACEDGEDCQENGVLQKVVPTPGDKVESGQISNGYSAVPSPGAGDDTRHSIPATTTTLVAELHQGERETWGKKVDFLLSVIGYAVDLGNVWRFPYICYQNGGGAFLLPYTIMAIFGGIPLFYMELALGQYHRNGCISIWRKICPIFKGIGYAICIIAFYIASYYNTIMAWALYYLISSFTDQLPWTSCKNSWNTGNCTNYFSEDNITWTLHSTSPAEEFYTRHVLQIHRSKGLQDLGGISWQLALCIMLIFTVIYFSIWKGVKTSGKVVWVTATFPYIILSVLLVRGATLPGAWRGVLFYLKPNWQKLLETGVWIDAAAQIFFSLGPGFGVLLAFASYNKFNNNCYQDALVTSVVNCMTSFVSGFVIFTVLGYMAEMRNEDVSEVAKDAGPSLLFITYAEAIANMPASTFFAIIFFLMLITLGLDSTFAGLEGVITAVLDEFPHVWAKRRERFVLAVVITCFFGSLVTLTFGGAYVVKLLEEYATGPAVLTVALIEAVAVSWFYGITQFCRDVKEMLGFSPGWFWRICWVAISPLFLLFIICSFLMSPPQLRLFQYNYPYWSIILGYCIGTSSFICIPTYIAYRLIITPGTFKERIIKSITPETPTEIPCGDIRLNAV
Sequence of UniProt P21918 (whole entry, looked up): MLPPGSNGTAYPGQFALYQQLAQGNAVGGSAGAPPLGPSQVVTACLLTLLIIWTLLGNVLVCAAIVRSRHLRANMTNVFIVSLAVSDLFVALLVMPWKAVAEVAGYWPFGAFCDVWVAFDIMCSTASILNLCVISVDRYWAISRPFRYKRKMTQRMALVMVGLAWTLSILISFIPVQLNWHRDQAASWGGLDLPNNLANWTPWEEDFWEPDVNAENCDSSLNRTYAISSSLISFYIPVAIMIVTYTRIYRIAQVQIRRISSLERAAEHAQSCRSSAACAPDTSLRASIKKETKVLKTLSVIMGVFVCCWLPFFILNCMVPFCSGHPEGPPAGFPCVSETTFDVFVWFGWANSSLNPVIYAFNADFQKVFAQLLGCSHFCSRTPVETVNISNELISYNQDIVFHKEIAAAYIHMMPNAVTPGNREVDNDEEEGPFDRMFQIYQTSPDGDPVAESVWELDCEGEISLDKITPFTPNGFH
Sequence of UniProt P20309 (whole entry, looked up): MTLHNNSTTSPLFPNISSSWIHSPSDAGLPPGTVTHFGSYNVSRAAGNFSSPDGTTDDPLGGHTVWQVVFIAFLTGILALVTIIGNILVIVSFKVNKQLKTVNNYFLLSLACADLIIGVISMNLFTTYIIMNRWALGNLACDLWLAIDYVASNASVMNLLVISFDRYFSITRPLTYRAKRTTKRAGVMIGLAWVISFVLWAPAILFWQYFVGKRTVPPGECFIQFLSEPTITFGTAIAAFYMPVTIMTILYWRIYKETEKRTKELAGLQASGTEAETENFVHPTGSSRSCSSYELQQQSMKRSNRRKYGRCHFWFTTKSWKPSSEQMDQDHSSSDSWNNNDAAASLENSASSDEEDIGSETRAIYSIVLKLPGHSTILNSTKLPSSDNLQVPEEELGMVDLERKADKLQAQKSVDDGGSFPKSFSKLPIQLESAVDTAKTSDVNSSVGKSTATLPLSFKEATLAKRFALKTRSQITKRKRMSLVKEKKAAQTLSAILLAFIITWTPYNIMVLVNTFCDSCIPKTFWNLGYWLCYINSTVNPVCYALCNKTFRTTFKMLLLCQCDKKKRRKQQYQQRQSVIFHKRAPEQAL
Sequence of UniProt Q01959 (whole entry, looked up): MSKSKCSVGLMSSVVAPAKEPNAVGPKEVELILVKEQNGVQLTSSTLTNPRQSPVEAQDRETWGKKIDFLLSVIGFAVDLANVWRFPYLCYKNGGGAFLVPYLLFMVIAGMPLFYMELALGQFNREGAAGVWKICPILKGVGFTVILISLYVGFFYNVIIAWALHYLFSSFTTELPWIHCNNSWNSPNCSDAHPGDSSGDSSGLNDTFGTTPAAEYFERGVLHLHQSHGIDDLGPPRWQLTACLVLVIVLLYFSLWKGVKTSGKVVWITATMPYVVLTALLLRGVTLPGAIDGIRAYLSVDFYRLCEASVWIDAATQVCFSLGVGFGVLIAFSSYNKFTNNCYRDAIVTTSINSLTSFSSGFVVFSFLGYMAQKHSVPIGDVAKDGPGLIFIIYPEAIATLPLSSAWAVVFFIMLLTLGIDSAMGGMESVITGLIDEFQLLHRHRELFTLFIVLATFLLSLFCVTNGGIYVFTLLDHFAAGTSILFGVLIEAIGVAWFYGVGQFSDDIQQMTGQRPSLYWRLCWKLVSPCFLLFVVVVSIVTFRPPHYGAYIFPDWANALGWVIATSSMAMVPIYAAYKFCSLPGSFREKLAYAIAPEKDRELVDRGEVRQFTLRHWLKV

Set 1
Organism: Sarcocystis neurona
Read-out: parasite growth
Tested at: concentration not given
Notes: first screen
Reference: untreated
Quantity: log2 fold change
Cl.OC1CCCCC1N1CCC(c2ccccc2)CC1 (racemic): -0.16
C[N+]1(C)CCN(c2ccccc2)CC1.[I-]: -0.035
COc1ccc2[nH]cc(C3=CCNCC3)c2c1.O=C(O)CCC(=O)O: -0.00468
Cl.O.Oc1ccc2c3c1O[C@H]1c4[nH]c5ccccc5c4C[C@@]4(O)[C@@H](C2)N(CC2CC2)CC[C@]314: -0.08
C[N+]1(CCC(C(N)=O)(c2ccccc2)c2ccccc2)CCCCC1.[Br-]: 0.27
COc1ccc(CCN)cc1OC: 0.0636
CCN(CC)CCOC(=O)C(O)(c1ccccc1)c1ccccc1.Cl: -0.00689

Set 2
Cell line: HEK-293T/ACE2
Tested at: concentration not given
Time: 16 (unit not given)
Reference: vehicle
Quantity: viability
CC(=O)NS(=O)(=O)c1ccc(N)cc1: 98.1%
CCN(CC)CCCC(C)Nc1ccnc2cc(Cl)ccc12 (centres unmarked): 104%
O=c1cc[nH]c(=O)[nH]1: 76.8%
Cc1ccc(C(=O)c2cc(O)c(O)c([N+](=O)[O-])c2)cc1: 80.3%
CC(=O)OCC(=O)[C@@]1(O)CC[C@H]2[C@@H]3CCC4=CC(=O)CC[C@]4(C)[C@H]3C(=O)C[C@@]21C: 92.9%
CCOC(=O)C1=C(C)NC(C)=C(C(=O)OC)C1c1cccc(Cl)c1Cl (centres unmarked): 94.1%
NS(=O)(=O)Cc1noc2ccccc12: 98.8%
CC(=O)OCC(COC(C)=O)OC(C)=O: 97.7%
CCCC1O[C@@H]2C[C@H]3[C@@H]4CCC5=CC(=O)C=C[C@]5(C)[C@H]4[C@@H](O)C[C@]3(C)[C@]2(C(=O)CO)O1 (some centres unmarked): 94.8%
CNC[C@H](O)c1cccc(O)c1: 98.6%

Set 3
Structure (SMILES): CCCCN(CCCC)C(=O)CN1C[C@H](c2cc(OC)c3c(c2)OCO3)[C@@H](C(=O)O)[C@@H]1CC(C)(C)CCC
Read-out: binding
Method: radioligand binding
Tested at: 10 µM
Quantity: inhibition
DRD5 (Homo sapiens, UniProt P21918): 17%
OPRK1 (Homo sapiens, UniProt P41145): -1.47%
SLC6A4 (Homo sapiens, UniProt P31645): 15.3%
SLC6A3 (Homo sapiens, UniProt Q01959): -0.591%
CHRM3 (Homo sapiens, UniProt P20309): -9.94%
OPRM1 (Homo sapiens, UniProt P35372): 14.2%
SLC6A2 (Homo sapiens, UniProt P23975): -19.9%

Set 4
SMILES: CCOc1ccc(Nc2c3c(nc4ccccc24)CCC3)cc1
Organism: Leishmania donovani
Quantity: inhibition
parasite growth; DD8 amphotericin B-resistant, promastigotes; 0.066 µM: 4% and 2% and 1%
parasite growth; 6.66 µM, promastigote: 37%
parasite growth; DD8 amphotericin B-resistant, intracellular amastigotes; 0.2 µM: 5% and 12% and 4% and 11%
parasite growth; DD8 amphotericin B-resistant, promastigotes; 0.033 µM: 4% and 2% and 6% and 1%
parasite viability, resazurin; DD8, promastigotes; 0.0066 µM: -3% and -4% and 2%

Some of these lines once more (set 1):
COc1ccc2[nH]cc(C3=CCNCC3)c2c1.O=C(O)CCC(=O)O: -0.00468
COc1ccc(CCN)cc1OC: 0.0636
Cl.O.Oc1ccc2c3c1O[C@H]1c4[nH]c5ccccc5c4C[C@@]4(O)[C@@H](C2)N(CC2CC2)CC[C@]314: -0.08
C[N+]1(CCC(C(N)=O)(c2ccccc2)c2ccccc2)CCCCC1.[Br-]: 0.27
